# Published values pooled from the literature.
# Every numbered part comes from another study and shows a few of its results, in no order. Values joined by “and” are separate records of one study, mostly repeats; a detail may differ.

# Set 1
# SMILES: COCC1CC2C(CCC3C(O)CCC32)c2ccc(O)cc21 (stereo not drawn)
cell line,method,refers to,concentration,baseline,log2 fold change
PANC-1,microarray,PIF1,100 µM,untreated,0.521
SK-OV-3,microarray,MCM6,25 µM,untreated,0.165
A549,DNA microarray,KIF20A,100 µM,untreated cells,-0.313 and -0.301 and -0.292 and -0.215 and -0.25
A549,DNA microarray,ACTA2,100 µM,untreated cells,0.566
PANC-1,DNA microarray,UBB mRNA,25 µM,control,-0.727
PANC-1,microarray,CDC25B,100 µM,untreated,0.168
SK-OV-3,DNA microarray,KIF20A,100 µM,untreated cells,0.0337 and 0.0331 and 0.0654 and 0.000596 and -0.0457
PANC-1,microarray,MCM6,25 µM,untreated,0.603
A549,DNA microarray,MCM10,25 µM,untreated cells,0.192
PANC-1,DNA microarray,CCL1 mRNA (probe A_23_P49759),25 µM,control,2.34
SK-OV-3,microarray,PIF1,100 µM,untreated,-0.0328
A549,microarray,CCL11,25 µM,untreated,9.11
A549,DNA microarray,C6,25 µM,untreated cells,7.78
A549,microarray,SPC25,100 µM,untreated,-0.593
SK-OV-3,microarray,MCM6,100 µM,untreated,-0.0994
SK-OV-3,microarray,GZMK,100 µM,untreated,0
SK-OV-3,microarray,RFC3,25 µM,untreated,0.418
A549,microarray,PIF1,100 µM,untreated,-0.523
SK-OV-3,microarray,GZMK,25 µM,untreated,0.304
PANC-1,DNA microarray,ADAMTS8 mRNA,25 µM,control,4.64
SK-OV-3,DNA microarray,MCM10,25 µM,untreated cells,-0.0725
PANC-1,microarray,AURKA,25 µM,untreated,0.596

# Set 2
# SMILES: CCN1/C(=C/C=C2\CCCC(/C=C/C3=[N+](CC)c4ccccc4C3(C)C)=C2NCCCCCCCCN2CCC(Nc3nc4ccccc4n3Cc3ccc(F)cc3)CC2)C(C)(C)c2ccccc21
# Cell line: U-87 MG
# Concentration: concentration not given
# Baseline: DMSO
refers to,log2 fold change
KDELR3 mRNA,-1.43
LOX mRNA,1.45
PRAG1 mRNA,-1.4
PTTG1 mRNA,-1.11
INHBA mRNA,1.93
UBC mRNA,1.83
RMND5A mRNA,1.58
HCAR3 mRNA,5.42
TMEM71 mRNA,2.14
SPRED3 mRNA,1.18
SH3D19 mRNA,-1.07
CBR3 mRNA,-1.35
ZNF222 mRNA,1.13
THRA mRNA,-1.09
XCR1 mRNA,-2.74
DAPK1 mRNA,-2.98

# Set 3
# Species: female CD-1 mouse
# Matrix: plasma
# Route: oral
# Dose: 10 mg/kg
SMILES,AUC(0-t)
Cc1ccc(O)c(C)c1-c1cnc2[nH]c(-c3cnc(N4CCC(CN5CCN(c6ccc7c(c6)CN(C6CCC(=O)NC6=O)C7=O)CC5)CC4)nc3)cc2c1C#N (stereo not drawn),713 ng·h/mL
Cc1ccc(O)c(C)c1-c1cnc2[nH]c(-c3cnc(N4CCC(CN5CCC(c6ccc(NC7CCC(=O)NC7=O)cc6F)CC5)CC4)nc3)cc2c1C#N (stereo not drawn),1260 ng·h/mL
Cc1ccc(O)c(C)c1-c1cnc2[nH]c(-c3cnc(N4CCC(CN5CCN(c6ccc(NC7CCC(=O)NC7=O)cc6F)CC5)CC4)nc3)cc2c1C#N (stereo not drawn),1840 ng·h/mL
Cc1ccc(O)c(C)c1-c1cnc2[nH]c(-c3cnc(N4CC5(CC(CN6CCN(c7ccc(NC8CCC(=O)NC8=O)cc7F)CC6)C5)C4)nc3)cc2c1C#N (stereo not drawn),532 ng·h/mL

# Set 4
# Compound: CC(C)=CCN1C(=O)C(O)(C(=O)O)Oc2cc(F)ccc21 (stereo not drawn)
organism,test,test system,setting,scale,inhibition
Glycine max,fresh weight,,"soil surface spray, 150 g ai/ha, 21 days, pre-emergence crop safety",,16.6% and 15.1% and 15.7%
Arabidopsis thaliana,root length,"Col-0, seedlings",25 µg/mL,baseline: water control,17.9%
Arabidopsis thaliana,hypocotyl length,"Col-0, seedlings",100 µg/mL,,31.5%
Arabidopsis thaliana,root length,"Col-0, seedlings",3.125 µg/mL,,10.7%
Amaranthus retroflexus,fresh weight,,"150 g ai/ha, post-emergence treatment",,29.1% and 28.2% and 34.3%
Arabidopsis thaliana,hypocotyl length,Col-0,"100 µg/mL, 7 days, seed germination, dark",,31.5%
Arabidopsis thaliana,hypocotyl length,"Col-0, seedlings",12.5 µg/mL,,4.64%
Arabidopsis thaliana,root length,"Col-0, seedlings",50 µg/mL,,30.9%
Avena fatua,fresh weight,,"150 g ai/ha, pre-emergence treatment",,37.8% and 41.5% and 46.7%
Arabidopsis thaliana,root length,"Col-0, seedlings",50 µg/mL,baseline: water control,30.9%
Arabidopsis thaliana,hypocotyl length,Col-0,"25.0 µg/mL, 7 days, seed germination, dark",,11.8%
Arabidopsis thaliana,hypocotyl length,Col-0,"12.5 µg/mL, 7 days, seed germination, dark",,4.6%
Arabidopsis thaliana,root length,"Col-0, seedlings",6.25 µg/mL,baseline: water control,11.9%
Arabidopsis thaliana,root length,"Col-0, seedlings",25 µg/mL,,17.9%

# Further values, each from its own experiment
Structure (SMILES),method,species,dose,setting,quantity,value
Cc1nc(C)c(C=[N+]([O-])C(C)(C)C)nc1C,footprint test,MPTP-induced Parkinson's disease mouse model,30 mg/kg,mean of three trials,corridor crossing time,5.14 s and 4.94 s and 5.78 s and 7.2 s and 5.33 s and 5.74 s and 7.54 s and 6.61 s

# For quick reference, copied from above (set 2):
refers to,log2 fold change
SPRED3 mRNA,1.18
TMEM71 mRNA,2.14
ZNF222 mRNA,1.13
LOX mRNA,1.45
SH3D19 mRNA,-1.07
THRA mRNA,-1.09
INHBA mRNA,1.93
UBC mRNA,1.83
PTTG1 mRNA,-1.11
